Experimental data collected from several papers.
Numbered parts are unrelated; each lists some results of a single study.

Study 1 — effect on: enzyme activity; mode: inhibitor; concentration: 20 µM; setting: primary screen; endpoint: inhibition
Target: Replicase polyprotein 1ab, main protease (rep, Severe acute respiratory syndrome coronavirus 2, UniProt P0DTD1)
CCOc1cc(C(Nc2cc(C)ccn2)c2ccc3cccnc3c2O)ccc1OC (stereo not shown): 98.9%
CC/C=C(\C(=O)N[C@@H]1C(=O)N2C(C(=O)OCOC(=O)C(C)(C)C)=C(COC(N)=O)CS[C@H]12)c1csc(N)n1: 32.7%
NC(Cc1cc(O)c(O)cc1O)C(=O)O (racemic): 62.8%

Study 2 — technique: universal PBM; molecule type: double-stranded DNA, one strand shown; medium: in vitro; concentration: 600 nM; reading: higher = stronger binding; endpoint: E-score
Target: Sal-like protein 4, full length isoform A (SALL4, Homo sapiens, UniProt Q9UJQ4, residues 1-1053)
Sequence of UniProt Q9UJQ4 (whole entry, looked up): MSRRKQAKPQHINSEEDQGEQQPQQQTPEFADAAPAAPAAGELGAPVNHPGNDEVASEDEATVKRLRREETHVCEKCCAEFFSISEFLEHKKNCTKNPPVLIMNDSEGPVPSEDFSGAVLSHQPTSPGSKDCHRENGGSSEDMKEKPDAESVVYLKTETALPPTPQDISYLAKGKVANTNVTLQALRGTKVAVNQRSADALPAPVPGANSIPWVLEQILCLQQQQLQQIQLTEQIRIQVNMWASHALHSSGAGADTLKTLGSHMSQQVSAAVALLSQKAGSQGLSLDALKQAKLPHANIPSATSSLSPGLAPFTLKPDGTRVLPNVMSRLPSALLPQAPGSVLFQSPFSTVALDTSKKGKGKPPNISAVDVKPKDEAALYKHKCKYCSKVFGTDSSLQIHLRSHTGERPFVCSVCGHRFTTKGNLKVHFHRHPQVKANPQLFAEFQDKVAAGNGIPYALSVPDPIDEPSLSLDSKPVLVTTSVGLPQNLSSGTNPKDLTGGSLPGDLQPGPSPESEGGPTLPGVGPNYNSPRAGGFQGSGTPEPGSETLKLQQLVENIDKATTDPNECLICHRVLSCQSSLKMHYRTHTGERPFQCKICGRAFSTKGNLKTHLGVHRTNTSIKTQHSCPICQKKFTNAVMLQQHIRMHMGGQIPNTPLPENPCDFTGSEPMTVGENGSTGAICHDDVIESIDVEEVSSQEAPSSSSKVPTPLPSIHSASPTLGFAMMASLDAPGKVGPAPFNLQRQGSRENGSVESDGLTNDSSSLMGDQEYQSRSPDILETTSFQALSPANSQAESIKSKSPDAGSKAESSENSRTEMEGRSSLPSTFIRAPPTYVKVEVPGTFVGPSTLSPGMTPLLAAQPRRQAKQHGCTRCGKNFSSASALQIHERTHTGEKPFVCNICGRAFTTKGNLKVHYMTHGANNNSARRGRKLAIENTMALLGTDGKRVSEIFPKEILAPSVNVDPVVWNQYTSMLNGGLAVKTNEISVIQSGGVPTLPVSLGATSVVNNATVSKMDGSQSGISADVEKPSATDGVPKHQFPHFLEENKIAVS
Setting: 8-mer, flanks averaged, mean of replicates
ACTTCGGA: 0.0971
GTAACCTA: 0.189
CCTACGTC: -0.0909
CATCAAAA: 0.213
CCAAACGG: -0.326
GACCAATA: 0.202
AAATTCCC: 0.116
ATGTTTCA: 0.253

Study 3 — technique: protein binding microarray; molecule type: double-stranded DNA, one strand shown; medium: in vitro; concentration: not given; reference: not given; reading: higher = stronger binding; endpoint: E-score
Target: Histone acetyltransferase KAT6A, winged helix 2, GST fusion (KAT6A, Homo sapiens, UniProt Q92794, residues 85-181)
Setting: 8-mer, flanks averaged, mean of 2 arrays, mostly near background
Residues (chain): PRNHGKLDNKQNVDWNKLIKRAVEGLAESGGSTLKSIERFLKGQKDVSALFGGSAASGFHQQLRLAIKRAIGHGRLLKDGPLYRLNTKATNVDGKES
CTCCCTAC: -0.036
TCACTTAA: 0.0202
AAAAGACC: -0.144
GCAGGTAC: 0.0303
ATAATAGG: 0.0447
CAGTGGCA: 0.0372
GGAAAGAA: 0.179
CTCAACTA: 0.0136

Study 4 — effect on: enzyme activity; mode: inhibitor; concentration: 20 µM; endpoint: inhibition
Target: Replicase polyprotein 1ab, polymerase (rep, Severe acute respiratory syndrome coronavirus 2, UniProt P0DTD1)
Cc1cc(O)cc2c1O[C@](C)(CCC[C@H](C)CCC[C@H](C)CCCC(C)C)CC2: 1.06%
OC[C@H]1O[C@@H](O[C@@H]2[C@H](O)[C@@H](O)[C@H](O[C@H]3[C@H](O)[C@@H](O)C(O)O[C@@H]3CO)O[C@@H]2CO)[C@H](O)[C@@H](O)[C@H]1O (stereo partly shown): -0.72%
c1ccc(CN(CC2=NCCN2)c2ccccc2)cc1: 23.3%
N#Cc1c(N)nc(SCc2csc(-c3ccc(Cl)cc3)n2)c(C#N)c1-c1ccc(OCCO)cc1: -1.65%
[N-]=[N+]=CC(=O)CC[C@H](N)C(=O)O: 5.13%
CC(=O)NCCc1c(Cc2ccccc2)[nH]c2ccccc12: -11.9%
O=[N+]([O-])c1ccc2c(c1)S(=O)(=O)C=C2: 6.84%
NCC(=O)N1C[C@H](NC(=O)c2ccccc2)C[C@H]1C(=O)O: 0.3%
CCCCOC(=O)c1ccc(N)cc1: 18.8%
CC(C)CCNC(=O)[C@H](CC(C)C)NC(=O)[C@H]1O[C@@H]1C(=O)O: -4.84%
CNC(=O)c1cccc2cc(Oc3ccnc4cc(OCC5(N)CC5)c(OC)cc34)ccc12: -4.39%
Cc1sc2c(c1C)C(c1ccc(Cl)cc1)=N[C@@H](CC(=O)Nc1ccc(O)cc1)c1nnc(C)n1-2: 0.77%
COc1cc(N)c(Cl)cc1C(=O)CCC1CCN(CCNS(C)(=O)=O)CC1: -0.88%
O=C1C[C@@H](c2ccccc2)Oc2cc(O)cc(O)c21: 0.41%
CC1CNc2c(cccc2S(=O)(=O)N[C@@H](CCCNC(=N)N)C(=O)N2CC[C@@H](C)C[C@@H]2C(=O)O)C1 (stereo partly shown): 2.69%
Cc1[nH]c(/C=C2\C(=O)Nc3ccc(F)cc32)c(C)c1C(=O)NCCN1CCCC1: 13.6%
O=C(O)c1cc(O)c2c(c1)C(=O)c1cccc(O)c1C2=O: -0.15%
COc1ccc(Cl)cc1[C@]1(F)C(=O)Nc2cc(C(F)(F)F)ccc21: 5.66%
C[C@@H]1C[C@H]2[C@@H]3CCC4=CC(=O)C=C[C@]4(C)[C@@]3(Cl)[C@@H](O)C[C@]2(C)[C@@]1(O)C(=O)CCl: 0.19%
CC(C)NCC(O)COc1cccc2[nH]c3ccccc3c12 (stereo not shown): 5.15%
CN[C@@H](C)C(=O)N[C@H](C(=O)N1CCC[C@H]1C(=O)Nc1snnc1-c1ccccc1)C1CCCCC1: -9.15%
CCOC(=O)c1ccc(NC2CCCCC2)c(N)c1: -3.16%
C[C@H](Cc1ccc(O)c(O)c1)[C@@H](C)Cc1ccc(O)c(O)c1: 3.38%
Cc1onc(-c2c(F)cccc2Cl)c1C(=O)N[C@@H]1C(=O)N2[C@@H]1SC(C)(C)[C@@H]2C(=O)O: 0.84%
O=C(O)CC/C=C\C[C@H]1CO[C@@H](c2ccccc2Cl)O[C@H]1c1ccccc1O: 10.9%

Study 5 — technique: competition protein-binding microarray; molecule type: double-stranded DNA, one strand shown; medium: in vitro; concentration: 2 µM; with: Cbf1 competitor, 0.05 µM; reading: higher = stronger binding; endpoint: fluorescence intensity; shared flanks, not repeated: … GTCTTGATTCGCTTGACGCTGCTG
Target: Phosphate system positive regulatory protein PHO4, full length, GST-tagged (PHO4, Saccharomyces cerevisiae, UniProt P07270, residues 1-312)
Sequence of UniProt P07270 (whole entry, looked up): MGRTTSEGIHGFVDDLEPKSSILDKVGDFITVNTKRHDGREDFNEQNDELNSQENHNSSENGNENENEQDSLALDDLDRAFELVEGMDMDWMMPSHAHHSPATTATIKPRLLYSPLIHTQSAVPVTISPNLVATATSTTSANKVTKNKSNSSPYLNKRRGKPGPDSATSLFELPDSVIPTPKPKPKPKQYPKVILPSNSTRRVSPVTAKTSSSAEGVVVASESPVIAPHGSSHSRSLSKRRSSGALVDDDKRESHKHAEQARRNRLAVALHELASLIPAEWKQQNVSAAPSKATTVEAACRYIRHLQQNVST
Setting: whole 60-bp probe, lowest competitor level
TGAAGAAGGGTAAATCTCGTGATGGAAATGTTCCTG: 6530 a.u.
ACTATTAATATATTTTCATATAATTAGTATAATCTC: 3930 a.u.
CTGTACGTTGGCATCCGCGTGCTTTAAAAGGGTGTA: 12200 a.u.
CATACCCAACCTTGTCACCGAACTTAAGATATTTGT: 3310 a.u.
AAATTACTAAGTTGACACGTGTTTTACCCCGTATGA: 20000 a.u.

Study 6 — technique: RNA Bind-n-Seq; molecule type: RNA; medium: in vitro; concentration: 200 nM; setting: whole 134-nt RNA, ends assumed; with: 150 mM LiCl; reference: input library; reading: higher = stronger binding; endpoint: log2 enrichment; all molecules: 7-deaza-guanosine replaces G
Target: Fragile X messenger ribonucleoprotein 1, C-terminal low-complexity region (Fmr1, Mus musculus, UniProt P35922)
Shared flanks, not repeated: GGGAGUUCUACAGUCCGACGAUC … UGGAAUUCUCGGGUGUCAAGG
UCCUGUGCUACACAUCGUAUGUACCGAAUCGGGGCCCCCGGGGCCCCCGGGCCCCCGGGGAAAGUAUUAUGUUACGCCGUUCGGAUCUGC: -2.34
UGGCCCUGGUGGCAUGCGGGGAGGAAGAGAUGGCCUCAUGGAUCGUGGUGGUCCCGGUGGAAUGUUCAGAGGUGGCCGUGGUGGAGACAG: -0.145
AGGGAGGUGGAUUUUGUUUAUUUUUUUAGCUCAUUUCCAGGGGUGGGAAUUUUUUUUUAAUAUGUGUCAUGAAUAAAGUUGUUUUUGAAA: 0.657
UCAAGUCCUGUGCUACACAUCGUAUGUACCGAAUCGGGGCCGGGGCCGGGCCGGAAAGUAUUAUGUUACGCCGUUCGGAUCUGCACUUCC: 0.263
UGGCCCUGGUGGCAUGCGGGGAGGAAGAGGUGGCCUCAUGGAUCGUGUUGGUCCCGGUGGAAUGUUCAGAGGUGGCCGUGGUGGAGACAG: -0.193

Other studies, line by line
CCC(=O)O[C@@H](O[P@](=O)(CCCCc1ccccc1)CC(=O)N1C[C@H](C2CCCCC2)C[C@H]1C(=O)[O-])C(C)C.[Na+]
cell number (HEK-293T-ACE2; concentration not given; reference: vehicle): 100%

Repeated from above (study 4):
N#Cc1c(N)nc(SCc2csc(-c3ccc(Cl)cc3)n2)c(C#N)c1-c1ccc(OCCO)cc1: -1.65%
[N-]=[N+]=CC(=O)CC[C@H](N)C(=O)O: 5.13%
CC(=O)NCCc1c(Cc2ccccc2)[nH]c2ccccc12: -11.9%
O=[N+]([O-])c1ccc2c(c1)S(=O)(=O)C=C2: 6.84%
NCC(=O)N1C[C@H](NC(=O)c2ccccc2)C[C@H]1C(=O)O: 0.3%
